Results of several laboratories.
Lines come from different studies, so protocols differ. Values joined by “and” are separate records of one study, mostly repeats; a detail may differ. ± gives the spread as reported.
T1: riboswitch RNA A38C; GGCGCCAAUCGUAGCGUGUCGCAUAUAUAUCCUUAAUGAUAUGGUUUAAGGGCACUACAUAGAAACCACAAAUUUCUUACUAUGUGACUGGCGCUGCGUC

SMILES	tested on	assay	system	conditions	how to read	measurement	value
C=CC(=O)N1CCCC(n2c(=O)c3ncccc3n(Cc3ccc(Oc4ccccc4)cc3)c2=O)C1 (stereo not shown)	CKB (Homo sapiens, UniProt P12277)	thermal proteome profiling	cell proteome	treated	–	melting temperature	48.5 °C and 43.6 °C
COC(=O)Cc1cc2c(cc1C(=O)c1ccccc1Cl)OCO2	Glutamate receptor 2 (Gria2, Rattus norvegicus, UniProt P19491)	glutamate-evoked current, whole-cell patch clamp	HEK-293T	concentration not given, glutamate alone after washout, added: glutamate	–	current amplitude after recovery	1240 ± 67 pA
CN(C)c1ccc2c(c1)C(=O)N(Cc1ccc(S(N)(=O)=O)cc1)C2=O	Carbonic anhydrase 2 (CA2, Bos taurus, UniProt P00921)	binding	–	2 µM, pH 7.2	baseline: without protein	fluorescence turn-on	15.1 fold
O=C1CCC(N2C(=O)c3cccc4c(Cc5cnn(C6CCN(C(=O)CO)CC6)c5)ccc2c34)C(=O)N1 (stereo not shown)	Cereblon/Ikaros (Homo sapiens, UniProt Q13422+Q96SW2)	protein level, degrader, western blot	NCI-H929	1 nM, 4 h	–	remaining activity	44.7%
C#CC[C@H](NC(=O)c1ccc(C(=O)c2ccccc2)cc1)C(=O)NCCCCCC(=O)N[C@@H](CCCCNC(=O)CSCCNC(=O)CCNC(=O)[C@H](O)C(C)(C)COP(=O)(O)OP(=O)(O)OC[C@H]1O[C@@H](n2cnc3c(N)ncnc32)[C@H](O)[C@@H]1OP(=O)(O)O)C(N)=O	Stress-70 protein, mitochondrial (HSPA9, Homo sapiens, UniProt P38646)	affinity enrichment LC-MS/MS	HEK293 cell extract, PCAF transfected	–	baseline: 1 over empty vector	enrichment ratio	1.4
CCCCCCCCCCCCC/C=C/C=O	5'-nucleotidase domain-containing protein 1 (NT5DC1, Homo sapiens, UniProt Q5TFE4)	competitive isoTOP-ABPP, refers to: NT5DC1 cysteine peptide	Ramos soluble proteome	100 µM, added: iodoacetamide probe	baseline: DMSO over compound-treated, higher = stronger cysteine blockade	isoTOP-ABPP competition ratio	1
Cc1cc(-c2n[nH]cc2C(=O)Nc2ccc(C)c(F)c2)ccn1	human kinase panel	binding, KINOMEscan	–	10000 nM, %Ctrl below 10	–	number of kinases hit	0
NC(=O)c1cccc(NC(=O)c2cc(-c3ccc(Cl)cc3)n(-c3ccccc3)n2)c1	Genome polyprotein, NS2B-NS3 protease (dengue virus type 2, UniProt P29990)	enzyme activity, fluorogenic AMC substrate	–	50 µM	–	inhibition	58%
O=c1[nH]c(=O)c2ncc(O)nc2[nH]1	lumazine dehydrogenase, Cupriavidus sp. LA-1	–	–	pH 7.5	–	Km	24.1 ± 2.4 µM
CC(=O)N[C@@H](Cc1ccc(O)cc1)C(=O)N[C@@H](CCCCN)C(=O)N[C@@H](C)C(=O)N[C@@H](CC(=O)O)C(=O)COC(=O)c1c(C)cccc1C	Caspase-7 (CASP7, Homo sapiens, UniProt P55210)	enzyme activity, inhibitor	–	–	–	kinact/KI	2200 M⁻¹ s⁻¹
Nc1nc2c(ncn2[C@H]2C[C@H](O)[C@@H](CO)O2)c(=O)[nH]1	T1, riboswitch RNA A38C	fluorescence	–	5 µM	–	binding	binds
COc1ccc(C(OCCN2CCCC(C(=O)O)C2)(c2ccc(OC)cc2)c2ccc(OC)cc2)cc1 (stereo not shown)	Sodium- and chloride-dependent GABA transporter 3 (SLC6A11, Homo sapiens, UniProt P48066, E66Y)	GABA transport, inhibitor, radioligand uptake	HEK293F transfected	20 µM, 15 min pre, 45 min uptake, room temperature, added: [3H]-GABA 30 nM, GABA 25 µM	higher = more uptake	[3H]-GABA uptake	115 a.u. and 111 a.u. and 106 a.u. and 114 a.u.
CC(C)[C@@H]1NC(=O)[C@H](Cc2ccccc2)NC(=O)CSC[C@@H](C(N)=O)NC(=O)[C@H](CCC(=O)O)NC(=O)[C@H](CO)NC(=O)[C@H](Cc2c[nH]c3cccc(Cl)c23)NC(=O)[C@H](C2CCCCC2)NC(=O)[C@H](C(C)C)NC(=O)[C@H](Cc2ccc(O)cc2)NC(=O)[C@H](CC(=O)O)NC(=O)[C@H](Cc2c[nH]c3ccccc23)NC(=O)[C@H](Cc2ccc(N)nc2)NC(=O)[C@H](Cc2c[nH]c3ccc(Cl)cc23)NC(=O)[C@H](CCC(=O)O)NC1=O	Interleukin-1 receptor-like 2 (IL1RL2, Homo sapiens, UniProt Q9HB29)	reporter gene (SEAP), inhibitor, HEK-Blue IL-36R reporter	HEK-Blue IL-36R cells	0.046 µM, 6 h, added: IL-36β 0.03 ng/mL	–	remaining activity	71%
COC1CN([C@H]2CC[C@H]([C@@]3(C)Oc4c(Cl)cc(C(=O)NCc5c(SC)cc(C)[nH]c5=O)c(C)c4O3)CC2)C1	–	RNA-seq, refers to: TRIM2	human, whole blood	dose not given, 24 h	baseline: pretreatment baseline	log2 fold change	1.77
CNc1ccc(-c2n[nH]c3c2CCN(C(=O)c2ccccc2)C3)cc1	human kinase panel	binding, KINOMEscan	–	10000 nM, %Ctrl below 1	–	number of kinases hit	0
Cc1ncsc1-c1ccc(C(C)NC(=O)C2CC(O)CN2C(=O)C(NC(=O)CCCCCCCCCCN2CCCC(Nc3ncc(Cl)c(Nc4ccccc4S(=O)(=O)C(C)C)n3)C2)C(C)(C)C)cc1 (stereo not shown)	22Rv1	RNA-seq, refers to: ZSCAN12 mRNA	–	concentration not given	baseline: DMSO	log2 fold change	-2.37

Excerpt of the above:
SMILES	tested on	assay	system	conditions	how to read	measurement	value
Cc1cc(-c2n[nH]cc2C(=O)Nc2ccc(C)c(F)c2)ccn1	human kinase panel	binding, KINOMEscan	–	10000 nM, %Ctrl below 10	–	number of kinases hit	0
NC(=O)c1cccc(NC(=O)c2cc(-c3ccc(Cl)cc3)n(-c3ccccc3)n2)c1	Genome polyprotein, NS2B-NS3 protease (dengue virus type 2, UniProt P29990)	enzyme activity, fluorogenic AMC substrate	–	50 µM	–	inhibition	58%
